Results collected from several papers.

SMILES	tested on	assay	system	setting	scale	quantity	result
COc1cc(C(=O)OCCN2CCN(CCCN3c4ccccc4Sc4ccc(Cl)cc43)CC2)cc(OC)c1OC	SARS-CoV-2	viral replication, high-content imaging screen	–	cell-based	–	EC50	> 100 µM
O=C(O[C@@H]1Cc2c(O)cc(O)cc2O[C@@H]1c1cc(O)c(O)c(O)c1)c1cc(O)c(O)c(O)c1	SARS-CoV-2	viral replication	Vero E6	1.562 µM	relative to: mean of replicates	CPE inhibition	0%
CC[C@H](C)[C@H](NC(=O)[C@H](CC(C)C)NC(=O)[C@H](Cc1c[nH]c2ccccc12)NC(=O)[C@H](CCC(N)=O)NC(=O)[C@@H](NC(=O)[C@H](Cc1ccccc1)NC(=O)[C@H](C)NC(=O)[C@H](CCCCNC(=O)COCCOCCNC(=O)COCCOCCNC(=O)CC[C@H](NC(=O)CCCCCCCCCCCCCCCCCCC(=O)O)C(=O)O)NC(=O)[C@H](CCC(N)=O)NC(=O)[C@H](C)NC(=O)[C@@H](NC(=O)[C@H](CCCCN)NC(=O)[C@H](CC(=O)O)NC(=O)[C@H](CC(C)C)NC(=O)C(C)(C)NC(=O)[C@@H](NC(=O)[C@H](CO)NC(=O)[C@H](Cc1ccc(O)cc1)NC(=O)[C@H](CC(=O)O)NC(=O)[C@H](CO)NC(=O)[C@@H](NC(=O)[C@H](Cc1ccccc1)NC(=O)[C@@H](NC(=O)CNC(=O)[C@H](CCC(=O)O)NC(=O)C(C)(C)NC(=O)[C@@H](N)Cc1ccc(O)cc1)[C@@H](C)O)[C@@H](C)O)[C@@H](C)CC)[C@@H](C)CC)C(C)C)C(=O)N[C@@H](C)C(=O)NCC(=O)NCC(=O)N1CCC[C@H]1C(=O)N[C@@H](CO)C(=O)N[C@@H](CO)C(=O)NCC(=O)N[C@@H](C)C(=O)N1CCC[C@H]1C(=O)N1CCC[C@H]1C(=O)N1CCC[C@H]1C(=O)N[C@@H](CO)C(N)=O	–	–	healthy human	8.0 mg, single ascending dose	–	feeling hot	28.6%
O=C(/C=C/c1ccc(O)c(O)c1/C=C/c1ccc(O)c(O)c1)O[C@H](Cc1ccc(O)c(O)c1)C(=O)O	SARS-CoV-2	viral replication	Vero E6	100 µM	–	CPE inhibition	90%
CC(C)(Cc1c[nH]c2ccccc12)NCC(O)COc1ccccc1C#N (stereo not shown)	SARS-CoV-2	viral replication, high-content imaging screen	–	cell-based	–	EC50	> 100 µM
COc1ccc(-c2cn3c(n2)sc2cc(C(=O)NCCCN4CCCCCC4)ccc23)cc1	SARS-CoV-2	cytopathic effect	USA_WA1/2020	round 2, 5-point	–	maximum response	68.5%
O=C1CC2(CCCC2)CC(=O)N1CCCCN1CCN(c2nsc3ccccc23)CC1	SARS-CoV-2	viral replication, high-content imaging screen	–	cell-based	–	EC50	> 100 µM
CC(Nc1nc(N2CCN(C)CC2)nc2ccccc12)c1ccccc1 (stereo not shown)	SARS-CoV-2	cytopathic effect, cell-based CPE	USA_WA1/2020	round 2, 5-point dilution	–	maximal response	109%
CC(C)(C)[C@H](NC(=O)C(F)(F)F)C(=O)N1C[C@H]2[C@@H]([C@H]1C(=O)N[C@H](C#N)C[C@@H]1CCNC1=O)C2(C)C	SARS-CoV-2	viral replication, infectious virus	Vero E6	0.0039 µM	–	inhibition	3.28%
CCOC(=O)[C@H]1O[C@@H]1C(=O)N[C@@H](CC(C)C)C(=O)NCCC(C)C	SARS-CoV-2	viral replication, GFP plate reader screen	–	cell-based	–	EC50	34.3 µM
Cn1cc(CN2CCCC(COc3ccccc3C(=O)N3CCCCC3)C2)c2ccccc21 (stereo not shown)	SARS-CoV-2	cytopathic effect	USA_WA1/2020	retest, 8-point, duplicates	–	maximum response	11.9%
CC(C)=CCc1c(O)ccc(C(=O)/C=C/c2ccc(O)cc2)c1O	SARS-CoV-2	cytopathic effect	Vero E6	3.125 µM, replicate run	–	mean inhibition	0%
COc1cccc(CNC(=O)C2CCN(Cc3cc4ccccc4n3Cc3ccccc3)CC2)c1OC	SARS-CoV-2	cytopathic effect, cell-based CPE	USA_WA1/2020	round 2, 5-point dilution	–	AC50	12.6 µM
Cc1c(CN2CCN(c3cccc(C(F)(F)F)c3)CC2)cc(-c2ccccc2)n1NC(=O)c1ccncc1	SARS-CoV-2	viral replication, GFP plate reader screen	–	cell-based	–	EC50	> 100 µM
COc1ccc(C[C@@H]2c3cc(Oc4cc(C[C@@H]5c6cc(O)c(OC)cc6CCN5C)ccc4O)c(OC)cc3CCN2C)cc1	SARS-CoV-2	cytopathic effect	Vero E6	100 µM, replicate run	–	mean inhibition	75%
Cc1ccc(C(C)Nc2nc(N3CCNCC3)nc3ccccc23)cc1 (stereo not shown)	SARS-CoV-2	cytopathic effect	USA_WA1/2020	retest 8-point	–	efficacy	92.4%

Some of these lines once more:
SMILES	tested on	assay	system	setting	scale	quantity	result
Cn1cc(CN2CCCC(COc3ccccc3C(=O)N3CCCCC3)C2)c2ccccc21 (stereo not shown)	SARS-CoV-2	cytopathic effect	USA_WA1/2020	retest, 8-point, duplicates	–	maximum response	11.9%
COc1ccc(-c2cn3c(n2)sc2cc(C(=O)NCCCN4CCCCCC4)ccc23)cc1	SARS-CoV-2	cytopathic effect	USA_WA1/2020	round 2, 5-point	–	maximum response	68.5%
CC(C)(C)[C@H](NC(=O)C(F)(F)F)C(=O)N1C[C@H]2[C@@H]([C@H]1C(=O)N[C@H](C#N)C[C@@H]1CCNC1=O)C2(C)C	SARS-CoV-2	viral replication, infectious virus	Vero E6	0.0039 µM	–	inhibition	3.28%
